Measured values pooled from the literature.
A part holds a random share of what one study measured. Positions count from the first letter of the parent shown.
UniProt P21802, sequence (whole entry, looked up): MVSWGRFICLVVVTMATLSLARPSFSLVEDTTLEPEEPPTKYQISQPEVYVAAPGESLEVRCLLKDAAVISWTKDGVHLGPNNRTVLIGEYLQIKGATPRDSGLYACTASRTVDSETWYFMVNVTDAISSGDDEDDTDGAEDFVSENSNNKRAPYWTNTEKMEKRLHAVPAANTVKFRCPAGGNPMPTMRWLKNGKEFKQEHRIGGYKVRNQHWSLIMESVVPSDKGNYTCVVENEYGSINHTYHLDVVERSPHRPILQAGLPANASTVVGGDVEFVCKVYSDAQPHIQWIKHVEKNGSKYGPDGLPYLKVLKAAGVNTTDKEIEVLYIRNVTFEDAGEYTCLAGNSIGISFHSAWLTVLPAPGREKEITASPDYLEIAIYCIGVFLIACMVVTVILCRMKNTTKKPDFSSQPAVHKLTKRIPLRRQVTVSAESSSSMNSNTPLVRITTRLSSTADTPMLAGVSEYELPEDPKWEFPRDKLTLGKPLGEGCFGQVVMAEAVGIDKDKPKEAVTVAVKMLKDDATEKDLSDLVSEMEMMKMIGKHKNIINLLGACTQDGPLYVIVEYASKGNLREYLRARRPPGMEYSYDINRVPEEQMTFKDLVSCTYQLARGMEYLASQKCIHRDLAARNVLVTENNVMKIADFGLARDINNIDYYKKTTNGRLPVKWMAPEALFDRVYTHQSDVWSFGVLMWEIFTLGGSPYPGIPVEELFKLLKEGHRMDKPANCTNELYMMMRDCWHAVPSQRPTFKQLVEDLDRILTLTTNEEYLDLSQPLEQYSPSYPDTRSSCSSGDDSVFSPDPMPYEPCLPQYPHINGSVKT
UniProt P78362, sequence (whole entry, looked up): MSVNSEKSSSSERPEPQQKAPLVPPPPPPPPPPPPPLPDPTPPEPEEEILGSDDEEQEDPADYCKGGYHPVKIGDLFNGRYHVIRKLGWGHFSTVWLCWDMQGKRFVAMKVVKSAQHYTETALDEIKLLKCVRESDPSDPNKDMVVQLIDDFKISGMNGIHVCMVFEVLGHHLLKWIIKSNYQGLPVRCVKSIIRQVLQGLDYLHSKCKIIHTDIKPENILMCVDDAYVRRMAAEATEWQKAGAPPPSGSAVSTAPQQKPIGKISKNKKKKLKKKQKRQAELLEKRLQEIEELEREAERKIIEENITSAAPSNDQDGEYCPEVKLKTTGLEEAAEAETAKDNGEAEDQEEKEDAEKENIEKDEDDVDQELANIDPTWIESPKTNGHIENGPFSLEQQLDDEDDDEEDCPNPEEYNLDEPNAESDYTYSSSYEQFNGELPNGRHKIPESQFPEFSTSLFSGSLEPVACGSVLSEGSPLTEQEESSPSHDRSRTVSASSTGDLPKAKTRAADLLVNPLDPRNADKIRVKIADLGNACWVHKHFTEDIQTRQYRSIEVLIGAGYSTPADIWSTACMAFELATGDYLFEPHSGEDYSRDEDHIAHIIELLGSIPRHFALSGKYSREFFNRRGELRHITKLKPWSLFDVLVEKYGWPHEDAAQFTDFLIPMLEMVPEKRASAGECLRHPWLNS
UniProt P0C264, sequence (whole entry, looked up): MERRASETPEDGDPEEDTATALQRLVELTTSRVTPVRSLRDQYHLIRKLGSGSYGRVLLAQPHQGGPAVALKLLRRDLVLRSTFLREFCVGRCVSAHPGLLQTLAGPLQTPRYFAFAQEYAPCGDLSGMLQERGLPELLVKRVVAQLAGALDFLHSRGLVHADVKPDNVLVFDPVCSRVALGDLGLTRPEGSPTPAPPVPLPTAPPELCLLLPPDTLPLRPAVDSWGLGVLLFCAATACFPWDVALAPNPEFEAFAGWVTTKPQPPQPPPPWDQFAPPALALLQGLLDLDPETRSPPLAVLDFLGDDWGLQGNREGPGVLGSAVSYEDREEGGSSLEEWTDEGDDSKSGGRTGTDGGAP
UniProt P10721, sequence (whole entry, unmodified, looked up): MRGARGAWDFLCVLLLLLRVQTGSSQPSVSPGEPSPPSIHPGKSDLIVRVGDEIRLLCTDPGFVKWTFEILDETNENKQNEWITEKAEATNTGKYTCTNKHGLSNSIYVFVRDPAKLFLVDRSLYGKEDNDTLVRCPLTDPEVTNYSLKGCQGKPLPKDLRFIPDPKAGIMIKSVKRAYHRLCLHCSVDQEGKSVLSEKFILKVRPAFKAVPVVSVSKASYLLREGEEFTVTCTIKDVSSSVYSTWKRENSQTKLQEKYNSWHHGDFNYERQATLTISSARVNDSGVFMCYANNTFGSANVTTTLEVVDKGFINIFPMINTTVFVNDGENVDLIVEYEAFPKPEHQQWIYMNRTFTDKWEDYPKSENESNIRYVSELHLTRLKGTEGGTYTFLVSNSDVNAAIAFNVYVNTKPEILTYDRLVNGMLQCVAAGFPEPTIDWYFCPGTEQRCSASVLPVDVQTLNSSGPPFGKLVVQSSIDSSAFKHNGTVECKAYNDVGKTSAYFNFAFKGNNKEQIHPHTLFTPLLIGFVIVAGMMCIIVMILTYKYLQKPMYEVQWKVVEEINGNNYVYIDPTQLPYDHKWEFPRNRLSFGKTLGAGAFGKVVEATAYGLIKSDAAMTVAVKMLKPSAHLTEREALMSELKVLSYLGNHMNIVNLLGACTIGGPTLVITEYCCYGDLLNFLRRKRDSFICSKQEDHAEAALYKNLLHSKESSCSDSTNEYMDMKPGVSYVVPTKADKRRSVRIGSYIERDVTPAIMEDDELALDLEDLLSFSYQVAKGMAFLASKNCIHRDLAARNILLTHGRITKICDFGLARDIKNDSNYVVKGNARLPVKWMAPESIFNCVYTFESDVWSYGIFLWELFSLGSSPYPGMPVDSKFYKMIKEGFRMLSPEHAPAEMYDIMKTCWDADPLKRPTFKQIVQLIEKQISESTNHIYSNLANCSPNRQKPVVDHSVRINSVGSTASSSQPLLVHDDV
UniProt P07947, sequence (whole entry, looked up): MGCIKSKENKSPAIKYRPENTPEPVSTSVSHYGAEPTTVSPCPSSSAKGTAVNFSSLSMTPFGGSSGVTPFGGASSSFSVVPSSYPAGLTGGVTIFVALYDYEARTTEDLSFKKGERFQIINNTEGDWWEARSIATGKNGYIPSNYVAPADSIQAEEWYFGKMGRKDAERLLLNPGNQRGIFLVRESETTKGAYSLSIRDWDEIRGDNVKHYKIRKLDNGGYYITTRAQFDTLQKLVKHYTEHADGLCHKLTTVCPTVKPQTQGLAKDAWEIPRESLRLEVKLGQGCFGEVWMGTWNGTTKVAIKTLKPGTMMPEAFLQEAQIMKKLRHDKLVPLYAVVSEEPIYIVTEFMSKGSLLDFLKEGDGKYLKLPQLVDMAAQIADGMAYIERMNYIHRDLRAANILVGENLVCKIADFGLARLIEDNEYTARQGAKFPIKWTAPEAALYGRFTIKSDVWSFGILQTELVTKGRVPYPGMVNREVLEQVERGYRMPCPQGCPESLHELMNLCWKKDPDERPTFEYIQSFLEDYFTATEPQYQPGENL

Set 1
Target: Cyclin-dependent kinase 2, with cyclin A (CDK2, Homo sapiens, UniProt P24941)
Observed: enzyme activity
Action: inhibitor
Concentration: 0.5 µM
Relative to: control
SMILES	remaining activity [%]
c1cc(-c2cnn3cc(-c4ccc(OCCN5CCCCC5)cc4)cnc23)ccn1	87.7
O=C(c1cc2cc(O)ccc2[nH]1)c1cc2cc(O)ccc2[nH]1	61.5
CC(C)n1cnc2c(Nc3cccc(Cl)c3)nc(NCCO)nc21	42
c1ccc2c(-c3ccncc3)c[nH]c2c1	99.7
CCN(CC)CCCCN1c2ccccc2Oc2ccc(Cl)cc21	98.7
CCCNC(=O)Nc1ccc(Oc2ncnc3cc(OC)c(OC)cc23)cc1Cl	92.8
Clc1ccc(Nc2nnc(Cc3ccncc3)c3ccccc23)cc1	87.7
Oc1cccc(-c2nc(N3CCOCC3)c3oc4ncccc4c3n2)c1	104
O=c1c(-c2ccc(F)cc2)c(-c2ccncc2)[nH]n1-c1ccc(Cl)cc1	89.9
COc1ccc2c(c1)c(C1=C(c3c[nH]c4ccccc34)C(=O)NC1=O)cn2CCCN(C)C	112
C[C@@H](N)[C@H]1CC[C@H](C(=O)Nc2ccncc2)CC1	93.2
COc1cc2c(N3CCN(C(=O)Nc4ccc(OC(C)C)cc4)CC3)ncnc2cc1OCCCN1CCCCC1	93.3
O=C(c1ccccc1)c1ccc(N2CCOCC2)cc1O	99.3
O=C1Nc2ccccc2/C1=C\c1c(Cl)[nH]c2ccccc12	91.5
O=C1c2ccccc2-c2nc3nnnn3nc21	70.3

Set 2
Target: CCND3, cyclin fold, Cln2 fusion (human)
Technique: yeast growth competition, sequencing
Sample: yeast
Notes: weak parent motif
Relative to: not given
Reading: higher = stronger binding
Parent: CDC25A docking peptide (human); PPHRRRLLFACSP
Change	normalised enrichment score
R6F	0.0937
S12G	0.136
C11D	0.0464
P1K	0.166
S12A	0.153
P2D	0.0763
S12C	0.151
H3S	0.161

Set 3
SMILES: Cc1cc(NC(=O)c2cccc(S(F)(F)(F)(F)F)c2)cc(-n2ccn3nc(-c4cccnc4)cc23)c1
Observed: cell-free assay
Technique: competition with immobilised ligand
Concentration: 1 µM
target	remaining binding
Tyrosine-protein kinase Yes (YES1, Homo sapiens, UniProt P07947)	100%
Mast/stem cell growth factor receptor Kit (KIT, Homo sapiens, UniProt P10721, V559D/V654A)	100%
SRSF protein kinase 2 (SRPK2, Homo sapiens, UniProt P78362)	100%
Uncharacterized serine/threonine-protein kinase SBK3 (SBK3, Homo sapiens, UniProt P0C264)	100%
Fibroblast growth factor receptor 2 (FGFR2, Homo sapiens, UniProt P21802)	81.7%
Dual specificity tyrosine-phosphorylation-regulated kinase 1A (DYRK1A, Homo sapiens, UniProt Q13627)	100%

Further values, each from its own experiment
Technique: cross-linking MS
Molecule	partner	sample	notes	with	quantity	result
RAD21 (Homo sapiens, UniProt O60216)	SMC3 (Homo sapiens, UniProt Q9UQE7)	–	hits only	–	interaction screen	cross-linked
HNRNPL (Homo sapiens, UniProt P14866)	HNRNPA2B1 (Homo sapiens, UniProt P22626)	–	hits only	–	interaction screen	cross-linked
RRS1 (Homo sapiens, UniProt Q15050)	NIP7 (Homo sapiens, UniProt Q9Y221)	cell fractions	–	DSSO	cross-linked residues	K279 to K94
ATP5F1D (Homo sapiens, UniProt P30049)	ATP5MK (Homo sapiens, UniProt Q96IX5)	cell fractions	–	DMTMM	cross-linked residues	E147 to A2
